Experimental data gathered from unrelated publications.
Lines come from different studies, so protocols differ. ± marks the error that the study gave.

Structure (SMILES)	assay	system	conditions	measurement	value
COc1ccc2c(c1)CCN(C(=O)C1CCN(c3c(C#N)cnc4ccc(F)cc34)CC1)C2		human liver microsomes		intrinsic clearance (scaled)	480 mL/min/kg
CO[C@]1(C(=O)N[C@@H](C)c2ccc(-n3cc(F)cn3)nc2)CC[C@H](c2nc(C)cc(Nc3cc(C)[nH]n3)n2)CC1				intrinsic solubility	0.2 µg/mL
C[C@@H]1CN(CC(=O)N2CC(C)(C)c3ncc(Cc4ccc(F)cc4)cc32)[C@@H](CN2CCOC[C@H]2C)CN1		microsomes, male mouse liver, CD-1	1 µM	intrinsic clearance	89 ± 20 µL/min/mg
O=C(NCCN1CCCC1)c1cc(-c2ccc(CN3CCOCC3)cc2)nc2ccc(F)cc12		human liver microsomes		intrinsic clearance	≤ 1.1 mL/min/g
O=c1ccc2ccc(O)cc2o1		mouse liver microsomes		intrinsic clearance	692 µL/min/mg protein
C=CC(=O)N(C)CCOc1c(N)ncnc1-c1cc(F)cc(NC(=O)c2ccc(C3CC3)cc2F)c1C		human liver microsomes	pH 7.4, sum of recombinant CYP contributions	intrinsic clearance, unbound	470 µL/min/mg
Cc1ccc(OC2CCN(c3c(C#N)cnc4ccc(F)cc34)CC2)cn1		rat liver microsomes		intrinsic clearance (scaled)	198 mL/min/kg
CCCCC1=NC2(CCCC2)C(=O)N1Cc1ccc(-c2ccccc2S(=O)(=O)Nc2noc(C)c2C)c(COCC)c1	SIVA model	aqueous buffer		intrinsic solubility	1.9 µg/mL
N#Cc1cnc2ccc(F)cc2c1N1CCC(C(=O)Nc2ccc(S(N)(=O)=O)cc2)CC1		human liver microsomes		intrinsic clearance (scaled)	31 mL/min/kg
O=C(c1ccc(F)cc1)C1CCN(CCn2c(=O)[nH]c3ccccc3c2=O)CC1		mouse liver microsomes		intrinsic clearance	239 mL/min/kg

Repeated from above:
Structure (SMILES)	assay	system	conditions	measurement	value
O=c1ccc2ccc(O)cc2o1		mouse liver microsomes		intrinsic clearance	692 µL/min/mg protein
C=CC(=O)N(C)CCOc1c(N)ncnc1-c1cc(F)cc(NC(=O)c2ccc(C3CC3)cc2F)c1C		human liver microsomes	pH 7.4, sum of recombinant CYP contributions	intrinsic clearance, unbound	470 µL/min/mg
